Published values from different studies.
A part holds a random share of what one study measured.
Chain of UniProt P36894 (whole entry, looked up): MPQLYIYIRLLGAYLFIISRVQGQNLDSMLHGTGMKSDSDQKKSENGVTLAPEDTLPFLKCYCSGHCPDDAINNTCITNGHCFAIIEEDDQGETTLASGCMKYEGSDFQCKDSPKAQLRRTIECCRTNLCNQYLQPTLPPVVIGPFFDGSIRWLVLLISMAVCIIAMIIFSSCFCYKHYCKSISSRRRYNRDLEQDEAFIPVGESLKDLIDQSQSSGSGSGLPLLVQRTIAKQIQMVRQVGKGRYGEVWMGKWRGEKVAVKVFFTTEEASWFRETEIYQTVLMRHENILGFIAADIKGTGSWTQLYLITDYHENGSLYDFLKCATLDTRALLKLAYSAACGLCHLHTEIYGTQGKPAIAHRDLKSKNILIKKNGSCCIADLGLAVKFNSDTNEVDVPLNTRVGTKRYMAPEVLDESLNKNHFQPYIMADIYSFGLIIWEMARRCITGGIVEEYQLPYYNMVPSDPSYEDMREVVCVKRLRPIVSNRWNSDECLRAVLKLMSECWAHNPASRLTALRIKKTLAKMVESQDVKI
Chain of UniProt P51813 (whole entry, looked up): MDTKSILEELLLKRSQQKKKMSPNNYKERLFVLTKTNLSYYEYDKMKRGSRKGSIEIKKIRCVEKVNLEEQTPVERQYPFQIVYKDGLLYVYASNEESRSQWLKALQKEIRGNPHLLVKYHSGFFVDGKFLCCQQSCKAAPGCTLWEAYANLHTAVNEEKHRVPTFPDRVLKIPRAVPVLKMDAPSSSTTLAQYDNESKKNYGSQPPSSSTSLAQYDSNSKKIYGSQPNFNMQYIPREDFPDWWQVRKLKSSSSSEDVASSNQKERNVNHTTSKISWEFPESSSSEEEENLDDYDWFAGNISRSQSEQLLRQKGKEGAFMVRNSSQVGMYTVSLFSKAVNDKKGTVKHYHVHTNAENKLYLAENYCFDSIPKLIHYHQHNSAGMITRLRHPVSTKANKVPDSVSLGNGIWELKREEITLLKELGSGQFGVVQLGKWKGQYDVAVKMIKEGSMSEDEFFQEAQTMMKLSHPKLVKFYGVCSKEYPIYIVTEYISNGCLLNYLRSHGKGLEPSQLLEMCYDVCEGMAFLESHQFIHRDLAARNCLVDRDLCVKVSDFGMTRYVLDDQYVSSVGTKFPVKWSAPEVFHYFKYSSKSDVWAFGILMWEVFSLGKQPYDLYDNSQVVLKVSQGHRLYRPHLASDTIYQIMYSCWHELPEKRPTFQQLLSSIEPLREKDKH
Chain of UniProt P33981 (whole entry, looked up): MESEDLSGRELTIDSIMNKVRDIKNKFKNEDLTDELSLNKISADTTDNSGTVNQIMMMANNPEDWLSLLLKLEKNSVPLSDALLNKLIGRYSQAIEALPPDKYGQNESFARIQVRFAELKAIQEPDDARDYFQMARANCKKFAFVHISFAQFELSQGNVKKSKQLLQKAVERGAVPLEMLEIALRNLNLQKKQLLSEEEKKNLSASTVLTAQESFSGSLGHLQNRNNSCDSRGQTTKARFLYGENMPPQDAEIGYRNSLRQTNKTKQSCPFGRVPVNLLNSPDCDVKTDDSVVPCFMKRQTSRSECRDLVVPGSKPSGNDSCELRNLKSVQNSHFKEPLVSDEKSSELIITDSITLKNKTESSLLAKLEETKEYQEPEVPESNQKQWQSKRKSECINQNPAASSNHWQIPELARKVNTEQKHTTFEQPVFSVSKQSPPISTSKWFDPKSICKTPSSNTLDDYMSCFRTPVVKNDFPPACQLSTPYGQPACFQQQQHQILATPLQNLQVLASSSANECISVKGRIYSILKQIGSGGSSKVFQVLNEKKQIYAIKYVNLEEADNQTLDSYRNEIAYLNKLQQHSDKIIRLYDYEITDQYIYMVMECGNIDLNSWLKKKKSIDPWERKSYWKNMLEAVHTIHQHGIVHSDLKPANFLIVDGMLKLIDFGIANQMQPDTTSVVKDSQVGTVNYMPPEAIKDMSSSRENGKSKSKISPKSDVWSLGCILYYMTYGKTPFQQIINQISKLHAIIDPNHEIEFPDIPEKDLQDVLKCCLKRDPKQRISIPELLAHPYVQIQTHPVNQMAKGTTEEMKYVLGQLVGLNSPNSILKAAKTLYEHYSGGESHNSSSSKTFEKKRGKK
Chain of UniProt P29323 (whole entry, looked up): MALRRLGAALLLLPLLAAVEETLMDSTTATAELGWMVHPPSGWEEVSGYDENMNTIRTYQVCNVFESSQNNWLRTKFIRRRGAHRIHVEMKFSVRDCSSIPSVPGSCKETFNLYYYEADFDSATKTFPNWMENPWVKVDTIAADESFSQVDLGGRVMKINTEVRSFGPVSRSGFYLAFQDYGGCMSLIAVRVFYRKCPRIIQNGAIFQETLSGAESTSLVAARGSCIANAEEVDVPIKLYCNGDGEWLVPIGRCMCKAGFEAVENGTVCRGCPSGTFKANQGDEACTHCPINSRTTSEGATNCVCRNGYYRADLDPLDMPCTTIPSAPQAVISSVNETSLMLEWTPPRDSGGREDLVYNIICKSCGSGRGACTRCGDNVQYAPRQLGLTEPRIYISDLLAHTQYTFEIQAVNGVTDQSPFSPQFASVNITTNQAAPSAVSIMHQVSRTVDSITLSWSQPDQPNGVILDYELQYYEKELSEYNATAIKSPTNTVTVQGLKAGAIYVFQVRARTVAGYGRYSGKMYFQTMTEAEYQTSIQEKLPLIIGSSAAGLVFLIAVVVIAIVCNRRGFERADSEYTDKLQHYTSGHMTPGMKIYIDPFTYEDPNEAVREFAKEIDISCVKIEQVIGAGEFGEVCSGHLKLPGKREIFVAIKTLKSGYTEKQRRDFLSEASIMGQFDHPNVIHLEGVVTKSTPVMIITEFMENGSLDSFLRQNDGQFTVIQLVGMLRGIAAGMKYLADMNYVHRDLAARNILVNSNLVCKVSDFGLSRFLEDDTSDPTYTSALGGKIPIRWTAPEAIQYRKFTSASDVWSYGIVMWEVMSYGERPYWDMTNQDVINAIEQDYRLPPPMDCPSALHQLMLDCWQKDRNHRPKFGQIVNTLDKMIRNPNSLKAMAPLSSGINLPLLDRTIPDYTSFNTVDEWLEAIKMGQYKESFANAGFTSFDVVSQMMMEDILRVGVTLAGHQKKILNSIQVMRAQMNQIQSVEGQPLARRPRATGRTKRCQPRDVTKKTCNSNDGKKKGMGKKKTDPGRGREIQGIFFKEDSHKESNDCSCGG
Chain of UniProt Q9P1W9 (whole entry, looked up): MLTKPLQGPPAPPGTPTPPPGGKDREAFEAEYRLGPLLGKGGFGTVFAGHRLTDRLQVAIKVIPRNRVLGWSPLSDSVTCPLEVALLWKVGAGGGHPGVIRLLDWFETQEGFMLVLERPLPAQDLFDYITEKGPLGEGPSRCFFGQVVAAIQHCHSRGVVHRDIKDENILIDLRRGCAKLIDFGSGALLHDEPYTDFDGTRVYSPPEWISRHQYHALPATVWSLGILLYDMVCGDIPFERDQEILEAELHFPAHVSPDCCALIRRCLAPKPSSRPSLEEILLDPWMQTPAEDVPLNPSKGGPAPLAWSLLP
Chain of UniProt P15056 (whole entry, looked up): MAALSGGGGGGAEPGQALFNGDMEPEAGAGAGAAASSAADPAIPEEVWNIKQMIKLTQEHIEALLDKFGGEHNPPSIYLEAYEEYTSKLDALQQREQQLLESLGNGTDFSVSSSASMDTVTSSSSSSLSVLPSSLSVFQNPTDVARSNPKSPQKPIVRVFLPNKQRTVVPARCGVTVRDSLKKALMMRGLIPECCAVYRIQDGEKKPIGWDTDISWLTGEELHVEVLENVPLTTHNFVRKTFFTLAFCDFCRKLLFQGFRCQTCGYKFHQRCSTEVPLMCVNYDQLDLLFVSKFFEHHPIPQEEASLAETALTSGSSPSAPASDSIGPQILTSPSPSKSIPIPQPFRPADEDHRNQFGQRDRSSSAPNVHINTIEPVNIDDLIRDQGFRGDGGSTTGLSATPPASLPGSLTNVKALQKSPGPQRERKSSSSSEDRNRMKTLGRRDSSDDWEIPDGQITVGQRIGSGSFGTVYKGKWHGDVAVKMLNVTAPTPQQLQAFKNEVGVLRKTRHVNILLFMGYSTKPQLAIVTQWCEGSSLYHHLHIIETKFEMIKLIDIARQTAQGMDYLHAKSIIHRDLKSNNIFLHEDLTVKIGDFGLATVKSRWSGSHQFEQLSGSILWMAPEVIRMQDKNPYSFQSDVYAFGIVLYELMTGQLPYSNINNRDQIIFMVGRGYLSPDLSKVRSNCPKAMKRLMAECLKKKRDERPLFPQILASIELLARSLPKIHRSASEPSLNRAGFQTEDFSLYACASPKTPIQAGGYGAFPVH
Chain of UniProt P43250 (whole entry, looked up): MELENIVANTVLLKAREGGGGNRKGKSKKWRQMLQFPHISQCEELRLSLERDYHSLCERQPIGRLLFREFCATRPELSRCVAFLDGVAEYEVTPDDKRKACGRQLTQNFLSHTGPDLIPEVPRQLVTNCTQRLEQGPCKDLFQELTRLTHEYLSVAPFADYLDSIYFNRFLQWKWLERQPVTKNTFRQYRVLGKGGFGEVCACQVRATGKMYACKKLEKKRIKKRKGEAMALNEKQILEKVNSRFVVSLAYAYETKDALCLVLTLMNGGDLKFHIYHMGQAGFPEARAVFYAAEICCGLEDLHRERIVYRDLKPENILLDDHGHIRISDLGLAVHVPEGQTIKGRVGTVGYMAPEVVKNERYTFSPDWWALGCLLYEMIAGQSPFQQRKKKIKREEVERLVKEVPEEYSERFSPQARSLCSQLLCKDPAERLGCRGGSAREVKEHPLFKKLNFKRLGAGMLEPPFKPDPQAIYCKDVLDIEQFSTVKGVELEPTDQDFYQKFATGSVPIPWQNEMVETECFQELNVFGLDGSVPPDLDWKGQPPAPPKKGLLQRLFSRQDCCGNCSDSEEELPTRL
Chain of UniProt Q96PN8 (whole entry, looked up): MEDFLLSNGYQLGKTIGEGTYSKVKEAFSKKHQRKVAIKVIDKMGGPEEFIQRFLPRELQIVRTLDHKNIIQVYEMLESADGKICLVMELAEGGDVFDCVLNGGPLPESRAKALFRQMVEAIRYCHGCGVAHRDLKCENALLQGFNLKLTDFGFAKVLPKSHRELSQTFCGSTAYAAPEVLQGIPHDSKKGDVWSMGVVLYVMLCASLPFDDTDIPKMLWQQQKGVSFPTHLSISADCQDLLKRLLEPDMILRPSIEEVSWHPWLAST

Set 1 — host: human; sample: microsomes or S9; tested at: 2 µM; time: 0.5 h
SMILES	remaining compound [%]
CN(CCOC(=O)c1ccc(C(C)(C)C)cc1)C1=NS(=O)(=O)c2ccccc21	< 1
N#Cc1cnn2c(O)cc(Cc3ccccc3)nc12	> 100
CC(C)N(/C(=N/c1c(F)cccc1F)Nc1ccc2c(c1)C=CC(C)(C)O2)C(C)C	2.91
Cc1ccc(C2(c3ccccc3)C=C(c3ccccc3)N(S(=O)(=O)c3ccc(C)cc3)O2)cc1 (stereo not shown)	0.575
CC1(C)Oc2ccncc2C(N(Cc2ncc[nH]2)c2ccc(Cl)cc2Cl)C1O (stereo not shown)	9.6
Cc1cccc(CN(CCN2CCOCC2)CC(O)COc2ccc(Cl)cc2)c1 (stereo not shown)	62.4
CC(C)C1(C)N=C(c2nn(C)cc2Br)NC1=O (stereo not shown)	> 99.9
COc1nn(C)cc1C(=O)N1CCN(c2nccn3nc4c(c23)CCCC4)CC1	55.8
Clc1ccccc1C1(c2ccnc(C3CCCC3)n2)CCNCC1	39.4
O=C(O)c1ccc(C2(c3ccc(C(=O)O)cc3)OC(=O)c3ccccc32)cc1	> 100

Set 2 — observed: enzyme activity; mode: inhibitor; tested at: 0.5 µM; baseline: control
Structure (SMILES): CN(C)S(=O)(=O)c1ccc2c(c1)/C(=C/c1cc3c([nH]1)CCCC3)C(=O)N2
target	remaining activity
Glycogen synthase kinase-3 alpha (GSK3A, Homo sapiens, UniProt P49840)	99.4%
Cytoplasmic tyrosine-protein kinase BMX (BMX, Homo sapiens, UniProt P51813)	103%
Ephrin type-B receptor 2 (EPHB2, Homo sapiens, UniProt P29323)	98.4%
G protein-coupled receptor kinase 6 (GRK6, Homo sapiens, UniProt P43250)	82.6%
Fibroblast growth factor receptor 4 (FGFR4, Homo sapiens, UniProt P22455)	92.9%
Serine/threonine-protein kinase Sgk1 (SGK1, Homo sapiens, UniProt O00141)	105%
Tyrosine-protein kinase CSK (CSK, Homo sapiens, UniProt P41240)	93.1%
Protein kinase C gamma type (PRKCG, Homo sapiens, UniProt P05129)	86.8%
Serine/threonine-protein kinase pim-2 (PIM2, Homo sapiens, UniProt Q9P1W9)	108%
Ribosomal protein S6 kinase beta-1 (RPS6KB1, Homo sapiens, UniProt P23443)	96.5%

Set 3 — method: competition with immobilised ligand; tested at: 1 µM
Structure (SMILES): CCCOc1ccc([C@@H]2[C@@H](C(=O)O)[C@H](c3ccc4c(c3)OCO4)CN2CC(=O)Nc2c(CC)cccc2CC)cc1
target	test	remaining binding [%]
Calcium/calmodulin-dependent protein kinase type II subunit gamma (CAMK2G, Homo sapiens, UniProt Q13555)	cell-free assay	88
Testis-specific serine/threonine-protein kinase 3 (TSSK3, Homo sapiens, UniProt Q96PN8)	cell-free assay	81
Serine/threonine-protein kinase WNK3 (WNK3, Homo sapiens, UniProt Q9BYP7)	cell-free assay	94
Phosphatidylinositol 4-kinase beta (PI4KB, Homo sapiens, UniProt Q9UBF8)	cell-free assay	100
Dual specificity protein kinase TTK (TTK, Homo sapiens, UniProt P33981)	cell-free assay	100
5'-AMP-activated protein kinase catalytic subunit alpha-2 (PRKAA2, Homo sapiens, UniProt P54646)	cell-free assay	95
Serine/threonine-protein kinase PLK2 (PLK2, Homo sapiens, UniProt Q9NYY3)	cell-free assay	86
Serine/threonine-protein kinase NLK (NLK, Homo sapiens, UniProt Q9UBE8)	cell-free assay	100
Serine/threonine-protein kinase DCLK3 (DCLK3, Homo sapiens, UniProt Q9C098)	cell-free assay	100
Bone morphogenetic protein receptor type-1A (BMPR1A, Homo sapiens, UniProt P36894)	binding	89
Leucine-rich repeat serine/threonine-protein kinase 2 (LRRK2, Homo sapiens, UniProt Q5S007, G2019S)	cell-free assay	84
Serine/threonine-protein kinase B-raf (BRAF, Homo sapiens, UniProt P15056)	cell-free assay	96

Set 4 — method: Phase 2a trial; host: idiopathic pulmonary fibrosis patients
Structure (SMILES): CC(C)n1cnc(-c2ccc(F)cc2)c1-c1ncc(C(=O)Nc2ccc(N3CCN(C)CC3)cc2)[nH]1
test	setting	patients with adverse events
refers to: neutrophil count increased	60 mg once daily, grade 3 maximum intensity	0%
refers to: oral herpes	oral, 60 mg once daily, grade 2 maximum intensity	0%
refers to: muscular weakness	dose not given, grade 2 maximum intensity, all arms	0%
refers to: tri-iodothyronine increased	60 mg once daily, grade 5 maximum intensity	0%
refers to: blood creatine phosphokinase increased	60 mg once daily, grade 3 maximum intensity	0%
refers to: vision blurred	60 mg once daily, grade 4 maximum intensity	0%
refers to: blood alkaline phosphatase increased	30 mg once daily, grade 5 maximum intensity	0%
refers to: bile acids increased	30 mg once daily, grade 3 maximum intensity	0%
refers to: urinary tract infection	30 mg once daily, grade 4 maximum intensity	0%
refers to: chest discomfort	30 mg once daily, grade 3 maximum intensity	0%
refers to: gamma-glutamyltransferase increased	30 mg once daily, grade 4 maximum intensity	0%
refers to: muscular weakness	30 mg once daily, grade 5 maximum intensity	0%
refers to: tri-iodothyronine increased	30 mg once daily, grade 2 maximum intensity	0%
refers to: eye disorders (SOC)	dose not given, grade 5 maximum intensity, all arms	0%
refers to: vision blurred	dose not given, grade 4 maximum intensity, all arms	0%
refers to: vision blurred	30 mg once daily, grade 3 maximum intensity	0%
refers to: tri-iodothyronine increased	dose not given, grade 4 maximum intensity, all arms	0%

Excerpt of the above (set 1):
SMILES	remaining compound [%]
CC1(C)Oc2ccncc2C(N(Cc2ncc[nH]2)c2ccc(Cl)cc2Cl)C1O (stereo not shown)	9.6
Cc1cccc(CN(CCN2CCOCC2)CC(O)COc2ccc(Cl)cc2)c1 (stereo not shown)	62.4
CC(C)C1(C)N=C(c2nn(C)cc2Br)NC1=O (stereo not shown)	> 99.9
